# Measurements gathered from unrelated publications.
# Each numbered part is a random draw from the data of one study; scales do not carry over between parts.
# Chain of UniProt O15530 (whole entry, looked up): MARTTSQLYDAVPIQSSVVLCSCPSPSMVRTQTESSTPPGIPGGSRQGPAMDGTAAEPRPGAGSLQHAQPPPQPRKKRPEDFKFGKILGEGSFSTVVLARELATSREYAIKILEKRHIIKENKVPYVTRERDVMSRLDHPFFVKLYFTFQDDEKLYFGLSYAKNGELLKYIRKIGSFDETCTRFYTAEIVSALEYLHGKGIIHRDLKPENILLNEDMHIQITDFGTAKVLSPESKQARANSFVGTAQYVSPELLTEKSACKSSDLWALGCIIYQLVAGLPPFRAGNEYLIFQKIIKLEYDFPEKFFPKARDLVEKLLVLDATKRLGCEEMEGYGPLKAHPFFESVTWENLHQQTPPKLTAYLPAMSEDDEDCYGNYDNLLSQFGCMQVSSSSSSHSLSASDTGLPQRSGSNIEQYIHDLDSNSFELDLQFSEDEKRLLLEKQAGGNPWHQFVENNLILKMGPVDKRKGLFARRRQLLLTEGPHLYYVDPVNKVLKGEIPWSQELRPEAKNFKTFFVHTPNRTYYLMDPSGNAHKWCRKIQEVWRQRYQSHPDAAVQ
# Chain of UniProt P41240 (whole entry, looked up): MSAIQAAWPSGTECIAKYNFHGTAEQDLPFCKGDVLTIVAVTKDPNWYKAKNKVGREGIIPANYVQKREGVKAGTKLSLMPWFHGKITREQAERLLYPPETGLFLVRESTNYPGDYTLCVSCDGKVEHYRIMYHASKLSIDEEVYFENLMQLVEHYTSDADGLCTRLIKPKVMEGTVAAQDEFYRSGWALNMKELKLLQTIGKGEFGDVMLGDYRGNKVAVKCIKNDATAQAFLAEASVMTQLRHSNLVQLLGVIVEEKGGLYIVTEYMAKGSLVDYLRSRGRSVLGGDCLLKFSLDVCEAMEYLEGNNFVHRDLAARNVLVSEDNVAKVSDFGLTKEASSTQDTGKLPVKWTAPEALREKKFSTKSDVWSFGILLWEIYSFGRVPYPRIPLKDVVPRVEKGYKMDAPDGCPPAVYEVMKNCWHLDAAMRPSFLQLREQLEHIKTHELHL
# Chain of UniProt P16234 (whole entry, looked up): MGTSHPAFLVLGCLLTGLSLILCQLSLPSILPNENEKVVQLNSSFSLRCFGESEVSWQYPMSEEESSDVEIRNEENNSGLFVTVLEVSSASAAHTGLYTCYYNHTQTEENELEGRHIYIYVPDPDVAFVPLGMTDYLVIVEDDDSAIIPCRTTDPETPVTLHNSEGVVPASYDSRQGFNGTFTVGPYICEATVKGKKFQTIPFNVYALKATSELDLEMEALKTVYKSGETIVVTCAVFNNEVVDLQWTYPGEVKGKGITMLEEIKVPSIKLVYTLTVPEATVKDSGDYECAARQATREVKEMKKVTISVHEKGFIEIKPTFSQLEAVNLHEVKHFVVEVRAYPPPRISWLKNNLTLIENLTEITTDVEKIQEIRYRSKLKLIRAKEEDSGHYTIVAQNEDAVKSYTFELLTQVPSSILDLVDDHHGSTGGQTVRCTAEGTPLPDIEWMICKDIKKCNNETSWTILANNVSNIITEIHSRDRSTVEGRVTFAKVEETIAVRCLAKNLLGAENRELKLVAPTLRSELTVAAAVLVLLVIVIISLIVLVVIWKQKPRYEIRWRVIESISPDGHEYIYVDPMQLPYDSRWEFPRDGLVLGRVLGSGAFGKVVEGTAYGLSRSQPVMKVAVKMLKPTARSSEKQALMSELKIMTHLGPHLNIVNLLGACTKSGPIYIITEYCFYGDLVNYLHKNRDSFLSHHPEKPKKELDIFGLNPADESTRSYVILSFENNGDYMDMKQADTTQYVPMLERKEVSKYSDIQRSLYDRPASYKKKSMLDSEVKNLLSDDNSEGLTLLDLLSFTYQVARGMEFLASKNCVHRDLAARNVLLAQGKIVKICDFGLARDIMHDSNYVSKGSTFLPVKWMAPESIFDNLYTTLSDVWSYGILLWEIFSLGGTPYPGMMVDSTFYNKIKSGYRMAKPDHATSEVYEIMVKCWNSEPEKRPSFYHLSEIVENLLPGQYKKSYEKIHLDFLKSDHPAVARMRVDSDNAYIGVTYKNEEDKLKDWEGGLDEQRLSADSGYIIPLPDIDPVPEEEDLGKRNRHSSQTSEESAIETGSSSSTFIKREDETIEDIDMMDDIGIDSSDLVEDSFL
# Chain of UniProt O00238 (whole entry, looked up): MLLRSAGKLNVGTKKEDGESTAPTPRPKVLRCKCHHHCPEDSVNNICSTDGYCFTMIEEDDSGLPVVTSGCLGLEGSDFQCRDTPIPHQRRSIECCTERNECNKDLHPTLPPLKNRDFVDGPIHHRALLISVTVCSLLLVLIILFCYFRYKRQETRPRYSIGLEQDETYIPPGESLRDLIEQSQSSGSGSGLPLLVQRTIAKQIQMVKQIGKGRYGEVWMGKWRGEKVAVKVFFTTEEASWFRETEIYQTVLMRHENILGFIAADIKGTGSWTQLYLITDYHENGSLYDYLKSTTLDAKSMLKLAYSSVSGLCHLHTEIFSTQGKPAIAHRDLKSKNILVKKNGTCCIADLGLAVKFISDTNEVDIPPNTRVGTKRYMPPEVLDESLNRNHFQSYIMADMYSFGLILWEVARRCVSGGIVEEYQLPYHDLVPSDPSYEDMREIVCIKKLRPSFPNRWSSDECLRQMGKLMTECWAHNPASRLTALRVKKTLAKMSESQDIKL
# Chain of UniProt Q00536 (whole entry, looked up): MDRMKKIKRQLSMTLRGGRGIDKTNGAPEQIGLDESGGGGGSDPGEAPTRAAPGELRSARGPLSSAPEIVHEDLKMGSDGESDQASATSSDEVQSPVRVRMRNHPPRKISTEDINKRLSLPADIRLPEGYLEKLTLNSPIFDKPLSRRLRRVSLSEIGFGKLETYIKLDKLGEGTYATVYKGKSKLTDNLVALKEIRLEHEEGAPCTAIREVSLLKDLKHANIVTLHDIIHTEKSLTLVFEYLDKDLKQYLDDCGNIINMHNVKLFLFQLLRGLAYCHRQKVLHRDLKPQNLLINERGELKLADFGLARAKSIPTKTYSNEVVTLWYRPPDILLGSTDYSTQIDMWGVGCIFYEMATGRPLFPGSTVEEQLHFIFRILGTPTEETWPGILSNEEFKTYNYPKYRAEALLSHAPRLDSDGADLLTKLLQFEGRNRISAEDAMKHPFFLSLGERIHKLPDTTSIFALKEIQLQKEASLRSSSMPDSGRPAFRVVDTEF
# Chain of UniProt O75914 (whole entry, looked up): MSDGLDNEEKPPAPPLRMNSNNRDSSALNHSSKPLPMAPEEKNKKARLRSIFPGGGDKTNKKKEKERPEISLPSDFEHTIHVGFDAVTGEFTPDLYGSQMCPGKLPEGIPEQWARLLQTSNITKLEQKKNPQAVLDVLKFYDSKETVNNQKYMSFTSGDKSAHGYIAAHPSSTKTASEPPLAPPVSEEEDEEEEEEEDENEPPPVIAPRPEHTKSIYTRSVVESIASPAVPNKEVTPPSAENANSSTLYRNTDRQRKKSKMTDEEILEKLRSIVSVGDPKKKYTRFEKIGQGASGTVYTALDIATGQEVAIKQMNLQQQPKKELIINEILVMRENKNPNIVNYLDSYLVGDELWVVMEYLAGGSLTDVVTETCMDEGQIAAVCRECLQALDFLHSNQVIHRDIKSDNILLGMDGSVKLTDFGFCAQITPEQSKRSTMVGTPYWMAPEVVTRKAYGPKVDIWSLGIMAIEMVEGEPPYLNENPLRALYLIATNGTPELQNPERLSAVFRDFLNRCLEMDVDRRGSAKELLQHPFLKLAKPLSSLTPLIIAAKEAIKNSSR
# Chain of UniProt Q9UIK4 (whole entry, looked up): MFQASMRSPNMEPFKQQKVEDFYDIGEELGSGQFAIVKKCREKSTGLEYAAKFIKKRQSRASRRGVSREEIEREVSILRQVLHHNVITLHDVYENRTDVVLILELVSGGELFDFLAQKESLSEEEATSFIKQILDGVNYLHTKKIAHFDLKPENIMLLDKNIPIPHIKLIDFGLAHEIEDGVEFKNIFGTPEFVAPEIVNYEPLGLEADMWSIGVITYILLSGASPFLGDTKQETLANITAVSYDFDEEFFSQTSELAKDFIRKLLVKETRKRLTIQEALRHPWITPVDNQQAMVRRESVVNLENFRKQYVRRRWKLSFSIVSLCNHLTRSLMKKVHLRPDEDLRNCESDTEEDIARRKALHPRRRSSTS
# Chain of UniProt Q8TDX7 (whole entry, looked up): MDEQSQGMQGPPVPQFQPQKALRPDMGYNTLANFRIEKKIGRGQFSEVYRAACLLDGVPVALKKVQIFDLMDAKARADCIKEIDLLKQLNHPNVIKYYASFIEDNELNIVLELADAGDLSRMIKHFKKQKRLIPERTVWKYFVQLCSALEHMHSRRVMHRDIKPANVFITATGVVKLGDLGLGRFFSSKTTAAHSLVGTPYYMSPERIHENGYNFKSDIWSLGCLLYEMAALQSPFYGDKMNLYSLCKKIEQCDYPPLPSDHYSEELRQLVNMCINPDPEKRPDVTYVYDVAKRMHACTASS

# Sample 1 — method: KINOMEscan; concentration: 10 µM; relative to: DMSO control; reading: lower = stronger binding
# Compound: COc1cc(C(=O)N2CCC(N3CCN(C)CC3)CC2)ccc1Nc1ncc2c(n1)N(C)c1ccccc1C(=O)N2C
target,binding
DAPK1,73%
ULK3,100%
PIM2,100%
ITK,82%
FLT4,100%
INSRR,97%
CAMK2B,62%
PFTK1,81%
MAP3K3,97%
PCTK1,96%
NEK6,76%
YANK2,100%
SLK,100%
MYLK4,80%
CASK,85%

# Sample 2 — organism: Sarcocystis neurona; observed: parasite growth; concentration: 10 µM; time: 96 h
SMILES,inhibition [%]
C#C[C@]1(O)CC[C@H]2[C@@H]3[C@H](C)CC4=C(CCC(=O)C4)[C@H]3CC[C@@]21C,-6.2
CCCCN1CCCC1CNC(=O)c1cc(C#N)c2ccccc2c1OC (stereo not drawn),-7.9
C[C@]12C=CC(=O)C=C1CC[C@@H]1[C@@H]2C(=O)C[C@@]2(C)[C@H]1CC[C@]2(O)C(=O)CO,-18.2
COc1ccccc1OCC(O)CN1CCN(CC(=O)Nc2c(C)cccc2C)CC1 (stereo not drawn),-3
CC(=O)OCC(CCn1cnc2cnc(N)nc21)COC(C)=O,-10.6
CC[C@H]1OC(=O)[C@H](C)[C@@H](O[C@H]2C[C@@](C)(OC)[C@@H](O)[C@H](C)O2)[C@H](C)[C@@H](O[C@@H]2O[C@H](C)C[C@H](N(C)C)[C@H]2O)[C@](C)(OC)C[C@@H](C)C(=O)[C@H](C)[C@@H](O)[C@]1(C)O,-1.5
CCOC(=O)[C@@]1(CCCCCCOc2ccc(Cl)cc2)CO1,-16.5
CC(C)[C@H](N)C(=O)OCCOCn1cnc2c(=O)[nH]c(N)nc21,-8.2
CC[C@H](C)C(=O)O[C@H]1C[C@H](O)C=C2C=C[C@H](C)[C@H](CC[C@@H](O)C[C@@H](O)CC(=O)O)[C@H]21,-4.8
CC(COc1ccccc1)NC(C)C(O)c1ccc(O)cc1 (stereo not drawn),-12
CCn1cc(C(=O)O)c(=O)c2cc(F)c(N3CCN(C)CC3)cc21,-3.9

# Sample 3 — observed: cell-free assay; method: competition with immobilised ligand; concentration: 0.1 µM
# SMILES: CS(=O)(=O)N1CCCC(NC(=O)[C@H](CCC2CCCCC2)NC(=O)c2ccc(CNC(=O)c3cnc4ccccn34)cc2)C1 (stereo partly drawn)
target,remaining binding [%]
"Serine/threonine-protein kinase Nek7 (NEK7, Homo sapiens, UniProt Q8TDX7)",100
"Phosphatidylinositol 4,5-bisphosphate 3-kinase catalytic subunit beta isoform (PIK3CB, Homo sapiens, UniProt P42338)",96
"Fibroblast growth factor receptor 1 (FGFR1, Homo sapiens, UniProt P11362)",100
"Tyrosine-protein kinase ABL1, phosphorylated (ABL1, Homo sapiens, UniProt P00519)",61
"Platelet-derived growth factor receptor alpha (PDGFRA, Homo sapiens, UniProt P16234)",99
"Microtubule-associated serine/threonine-protein kinase 1 (MAST1, Homo sapiens, UniProt Q9Y2H9)",94
"Cyclin-dependent kinase-like 3 (CDKL3, Homo sapiens, UniProt Q8IVW4)",100
"Bone morphogenetic protein receptor type-1B (BMPR1B, Homo sapiens, UniProt O00238)",100
"Epidermal growth factor receptor (EGFR, Homo sapiens, UniProt P00533, G719S)",100
"Receptor-type tyrosine-protein kinase FLT3 (FLT3, Homo sapiens, UniProt P36888)",82
"Cyclin-dependent kinase 16 (CDK16, Homo sapiens, UniProt Q00536)",100
"Serine/threonine-protein kinase PAK 3 (PAK3, Homo sapiens, UniProt O75914)",100
"Death-associated protein kinase 2 (DAPK2, Homo sapiens, UniProt Q9UIK4)",94
"Tyrosine-protein kinase CSK (CSK, Homo sapiens, UniProt P41240)",100
"Atypical kinase COQ8A, mitochondrial (COQ8A, Homo sapiens, UniProt Q8NI60)",100
"Macrophage colony-stimulating factor 1 receptor (CSF1R, Homo sapiens, UniProt P07333)",65
"3-phosphoinositide-dependent protein kinase 1 (PDPK1, Homo sapiens, UniProt O15530)",100

# Sample 4 — observed: enzyme activity; mode: inhibitor; concentration: 0.5 µM; relative to: control
# Target: MAP kinase-interacting serine/threonine-protein kinase 1 (MKNK1, Homo sapiens, UniProt Q9BUB5)
# Chain of UniProt Q9BUB5 (whole entry, looked up): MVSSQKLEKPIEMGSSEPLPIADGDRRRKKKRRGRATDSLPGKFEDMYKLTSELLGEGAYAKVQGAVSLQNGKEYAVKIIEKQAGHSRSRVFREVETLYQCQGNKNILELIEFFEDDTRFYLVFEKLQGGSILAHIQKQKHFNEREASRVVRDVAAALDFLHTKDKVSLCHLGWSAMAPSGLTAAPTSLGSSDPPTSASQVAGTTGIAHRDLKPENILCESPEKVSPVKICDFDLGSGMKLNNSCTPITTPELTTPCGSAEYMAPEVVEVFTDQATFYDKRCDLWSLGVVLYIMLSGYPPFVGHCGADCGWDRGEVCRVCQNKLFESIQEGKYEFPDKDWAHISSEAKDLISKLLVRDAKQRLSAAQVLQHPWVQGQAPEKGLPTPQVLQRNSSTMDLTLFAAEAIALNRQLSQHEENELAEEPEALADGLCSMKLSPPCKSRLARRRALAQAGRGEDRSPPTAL
SMILES,remaining activity [%]
CN(C)CCCn1cc(C2=C(c3c[nH]c4ccccc34)C(=O)NC2=O)c2ccccc21,81.2
COc1ccc(-c2cnc3c(-c4ccsc4)cnn3c2)cc1,87.1
C[S+]([O-])c1ccc(-c2nc(-c3ccncc3)c(-c3ccc(F)cc3)[nH]2)cc1 (stereo not drawn),98.5
Cc1nc(Nc2ncc(C(=O)Nc3c(C)cccc3Cl)s2)cc(N2CCN(CCO)CC2)n1,91.3
O=c1cc(N2CCOCC2)oc2c1ccc1ccccc12,95
CC(C)c1nn(-c2c(Cl)cccc2Cl)c2nc(Cc3ccc(OCCO)cc3)[nH]c(=O)c12,110
CC(=O)O/N=C1/C(c2c(O)[nH]c3cc(Br)ccc23)=Nc2ccccc21,95.2
CCC(=O)Nc1ccc2ncnc(Nc3cccc(Br)c3)c2c1,82.8
Cn1cnc2cc3c(Nc4cccc(Br)c4)ncnc3cc21,39.9
CCOc1cc2ncnc(Nc3cccc(Br)c3)c2cc1OCC,46
COc1cc2ncnc(Nc3ccc(OCc4ccccc4)cc3)c2cc1OC,101

# For quick reference, copied from above (sample 1):
target,binding
INSRR,97%
MAP3K3,97%
CAMK2B,62%
ULK3,100%
SLK,100%
PIM2,100%
